Published values pooled from the literature.
Protocols differ between the studies behind these lines. Several values in a cell are separate wells, animals, samples, runs or records. Numbers after ± are the reported error.
Moesin with CD44: Moesin, with CD44 (Homo sapiens, UniProt P26038)
Tubulin alpha/beta heterodimer: Tubulin alpha/beta heterodimer (Leishmania infantum, UniProt A0A381MCS3+A4HTR0)
IDO1: Indoleamine 2,3-dioxygenase 1 (IDO1, Homo sapiens, UniProt P14902)
VHL with elongin B, C: von Hippel-Lindau disease tumor suppressor, with elongin B, C (VHL, Homo sapiens, UniProt P40337)
APP amyloid-beta peptide: Amyloid-beta precursor protein, amyloid-beta peptide (APP, Homo sapiens, UniProt P05067)
ESR1: Estrogen receptor (ESR1, Homo sapiens, UniProt P03372)
Grm2: Metabotropic glutamate receptor 2 (Grm2, Rattus norvegicus, UniProt P31421)

By UniProt entry, the sequences of proteins in these tests, tags left out. Where a name states a change or a piece, a line headed by the entry shows the natural chain unless it says otherwise. Residues count along the entry.
UniProt A0A381MCS3, 1-451: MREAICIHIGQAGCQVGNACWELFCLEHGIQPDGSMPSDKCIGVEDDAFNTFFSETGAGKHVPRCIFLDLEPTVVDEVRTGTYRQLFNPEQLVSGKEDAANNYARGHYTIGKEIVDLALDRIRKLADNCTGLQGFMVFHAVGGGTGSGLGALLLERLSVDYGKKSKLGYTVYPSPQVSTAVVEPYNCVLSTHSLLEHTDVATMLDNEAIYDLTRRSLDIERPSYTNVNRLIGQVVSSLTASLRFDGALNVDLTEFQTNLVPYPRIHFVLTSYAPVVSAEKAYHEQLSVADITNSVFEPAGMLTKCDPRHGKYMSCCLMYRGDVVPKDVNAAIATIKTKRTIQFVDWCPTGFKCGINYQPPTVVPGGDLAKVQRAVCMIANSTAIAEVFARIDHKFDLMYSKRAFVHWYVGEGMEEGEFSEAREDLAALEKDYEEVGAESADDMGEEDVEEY
UniProt A4HTR0, 1-443: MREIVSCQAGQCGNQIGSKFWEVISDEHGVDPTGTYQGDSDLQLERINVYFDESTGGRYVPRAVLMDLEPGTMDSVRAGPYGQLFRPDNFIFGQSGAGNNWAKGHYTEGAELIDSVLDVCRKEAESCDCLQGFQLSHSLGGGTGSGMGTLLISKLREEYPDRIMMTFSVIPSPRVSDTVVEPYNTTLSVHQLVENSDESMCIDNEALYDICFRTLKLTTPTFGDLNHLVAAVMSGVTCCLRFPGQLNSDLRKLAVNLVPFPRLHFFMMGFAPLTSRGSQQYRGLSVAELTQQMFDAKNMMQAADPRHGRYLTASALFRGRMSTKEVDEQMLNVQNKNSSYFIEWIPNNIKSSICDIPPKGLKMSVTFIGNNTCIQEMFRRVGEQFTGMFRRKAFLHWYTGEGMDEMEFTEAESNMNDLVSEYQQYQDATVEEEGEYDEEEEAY
UniProt P14902, whole entry: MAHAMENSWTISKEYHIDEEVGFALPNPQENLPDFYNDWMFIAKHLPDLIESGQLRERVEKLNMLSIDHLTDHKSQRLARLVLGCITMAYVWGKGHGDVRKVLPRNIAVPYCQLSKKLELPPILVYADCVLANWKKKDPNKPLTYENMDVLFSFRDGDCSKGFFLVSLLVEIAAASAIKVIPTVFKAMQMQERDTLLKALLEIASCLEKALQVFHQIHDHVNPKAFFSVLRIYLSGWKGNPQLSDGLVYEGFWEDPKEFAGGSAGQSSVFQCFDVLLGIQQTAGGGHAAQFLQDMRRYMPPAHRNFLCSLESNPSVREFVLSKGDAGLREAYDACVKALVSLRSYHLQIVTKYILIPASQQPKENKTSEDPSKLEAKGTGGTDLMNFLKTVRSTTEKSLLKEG
UniProt P03372, whole entry: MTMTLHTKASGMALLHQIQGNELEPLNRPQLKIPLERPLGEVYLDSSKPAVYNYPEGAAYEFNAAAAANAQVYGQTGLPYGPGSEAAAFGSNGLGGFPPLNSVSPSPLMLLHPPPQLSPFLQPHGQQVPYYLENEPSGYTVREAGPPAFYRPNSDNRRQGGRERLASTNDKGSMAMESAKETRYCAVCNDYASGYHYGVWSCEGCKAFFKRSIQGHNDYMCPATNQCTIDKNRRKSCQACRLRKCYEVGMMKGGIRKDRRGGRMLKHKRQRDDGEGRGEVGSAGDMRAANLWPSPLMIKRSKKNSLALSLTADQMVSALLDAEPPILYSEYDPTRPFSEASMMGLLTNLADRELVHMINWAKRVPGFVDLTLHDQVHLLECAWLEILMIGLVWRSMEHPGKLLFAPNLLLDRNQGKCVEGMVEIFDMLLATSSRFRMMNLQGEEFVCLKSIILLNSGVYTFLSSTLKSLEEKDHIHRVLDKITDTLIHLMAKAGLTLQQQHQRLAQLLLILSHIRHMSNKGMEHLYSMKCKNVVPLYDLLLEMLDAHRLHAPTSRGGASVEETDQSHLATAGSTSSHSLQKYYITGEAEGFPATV
UniProt P07949, 29-1114 limits assumed: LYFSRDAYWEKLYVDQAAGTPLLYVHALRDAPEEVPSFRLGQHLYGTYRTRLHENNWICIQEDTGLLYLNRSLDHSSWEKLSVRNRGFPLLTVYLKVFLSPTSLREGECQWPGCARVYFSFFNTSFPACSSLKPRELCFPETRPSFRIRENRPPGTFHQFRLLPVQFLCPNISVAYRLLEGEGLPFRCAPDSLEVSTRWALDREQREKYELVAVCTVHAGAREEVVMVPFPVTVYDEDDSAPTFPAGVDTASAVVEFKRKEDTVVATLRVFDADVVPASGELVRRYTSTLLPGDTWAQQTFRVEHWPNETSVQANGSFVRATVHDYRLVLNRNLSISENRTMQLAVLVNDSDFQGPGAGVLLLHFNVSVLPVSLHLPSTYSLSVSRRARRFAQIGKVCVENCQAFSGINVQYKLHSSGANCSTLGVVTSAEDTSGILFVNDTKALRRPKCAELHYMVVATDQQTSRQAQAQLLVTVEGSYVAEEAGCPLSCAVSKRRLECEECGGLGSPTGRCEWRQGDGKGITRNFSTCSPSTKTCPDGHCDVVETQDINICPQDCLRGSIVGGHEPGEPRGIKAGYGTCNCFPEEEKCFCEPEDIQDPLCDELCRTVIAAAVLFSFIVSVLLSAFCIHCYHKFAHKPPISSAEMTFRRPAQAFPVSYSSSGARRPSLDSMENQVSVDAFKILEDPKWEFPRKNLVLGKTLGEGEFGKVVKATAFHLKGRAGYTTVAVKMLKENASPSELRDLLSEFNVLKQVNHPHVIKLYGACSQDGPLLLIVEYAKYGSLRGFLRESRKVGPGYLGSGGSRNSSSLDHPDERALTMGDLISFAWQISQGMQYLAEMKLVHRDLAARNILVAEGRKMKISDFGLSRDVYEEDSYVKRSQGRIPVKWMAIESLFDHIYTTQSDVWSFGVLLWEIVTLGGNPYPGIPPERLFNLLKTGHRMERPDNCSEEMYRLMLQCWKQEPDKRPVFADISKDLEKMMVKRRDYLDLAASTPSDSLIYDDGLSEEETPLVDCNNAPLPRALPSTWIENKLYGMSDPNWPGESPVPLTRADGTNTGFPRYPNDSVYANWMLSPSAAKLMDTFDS
UniProt P07949, whole entry, looked up, stated change not applied: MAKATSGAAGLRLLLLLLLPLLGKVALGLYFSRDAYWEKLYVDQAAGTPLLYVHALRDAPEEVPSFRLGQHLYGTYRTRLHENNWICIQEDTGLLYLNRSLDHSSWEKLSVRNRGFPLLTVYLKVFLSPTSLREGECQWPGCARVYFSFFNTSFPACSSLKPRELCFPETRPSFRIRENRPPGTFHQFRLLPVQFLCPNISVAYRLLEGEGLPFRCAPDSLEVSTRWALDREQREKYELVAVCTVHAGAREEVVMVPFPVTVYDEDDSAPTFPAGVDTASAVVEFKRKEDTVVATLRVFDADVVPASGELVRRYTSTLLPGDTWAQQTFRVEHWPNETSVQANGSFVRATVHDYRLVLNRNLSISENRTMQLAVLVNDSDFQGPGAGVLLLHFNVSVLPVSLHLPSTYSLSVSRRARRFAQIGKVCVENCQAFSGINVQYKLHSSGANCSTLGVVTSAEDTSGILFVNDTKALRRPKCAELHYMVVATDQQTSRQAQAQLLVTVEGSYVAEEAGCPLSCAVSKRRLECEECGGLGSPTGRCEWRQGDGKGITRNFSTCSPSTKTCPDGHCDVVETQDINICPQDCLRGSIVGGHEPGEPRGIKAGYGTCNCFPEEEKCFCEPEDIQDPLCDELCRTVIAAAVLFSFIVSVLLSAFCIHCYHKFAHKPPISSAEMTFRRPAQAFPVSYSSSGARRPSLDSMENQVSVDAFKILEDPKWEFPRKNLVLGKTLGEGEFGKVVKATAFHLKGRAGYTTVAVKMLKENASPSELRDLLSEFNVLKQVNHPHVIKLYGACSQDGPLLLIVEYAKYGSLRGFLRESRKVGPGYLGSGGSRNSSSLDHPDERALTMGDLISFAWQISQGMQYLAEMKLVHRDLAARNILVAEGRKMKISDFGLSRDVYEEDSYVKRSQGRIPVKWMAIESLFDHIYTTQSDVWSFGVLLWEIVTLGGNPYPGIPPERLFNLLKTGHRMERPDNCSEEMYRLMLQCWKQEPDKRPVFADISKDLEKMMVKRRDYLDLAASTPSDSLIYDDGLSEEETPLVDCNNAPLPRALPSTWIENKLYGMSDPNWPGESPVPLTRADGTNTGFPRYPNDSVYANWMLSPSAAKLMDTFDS
UniProt Q63009, whole entry: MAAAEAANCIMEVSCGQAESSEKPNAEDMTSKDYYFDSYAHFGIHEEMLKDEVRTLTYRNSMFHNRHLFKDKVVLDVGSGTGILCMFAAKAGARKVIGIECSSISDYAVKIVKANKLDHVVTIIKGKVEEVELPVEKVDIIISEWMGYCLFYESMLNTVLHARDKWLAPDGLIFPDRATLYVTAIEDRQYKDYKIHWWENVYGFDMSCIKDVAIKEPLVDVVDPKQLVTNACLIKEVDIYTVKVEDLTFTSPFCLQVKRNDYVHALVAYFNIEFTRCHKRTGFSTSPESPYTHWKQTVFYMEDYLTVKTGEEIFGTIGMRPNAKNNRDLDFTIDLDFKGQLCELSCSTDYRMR
UniProt P19784, whole entry: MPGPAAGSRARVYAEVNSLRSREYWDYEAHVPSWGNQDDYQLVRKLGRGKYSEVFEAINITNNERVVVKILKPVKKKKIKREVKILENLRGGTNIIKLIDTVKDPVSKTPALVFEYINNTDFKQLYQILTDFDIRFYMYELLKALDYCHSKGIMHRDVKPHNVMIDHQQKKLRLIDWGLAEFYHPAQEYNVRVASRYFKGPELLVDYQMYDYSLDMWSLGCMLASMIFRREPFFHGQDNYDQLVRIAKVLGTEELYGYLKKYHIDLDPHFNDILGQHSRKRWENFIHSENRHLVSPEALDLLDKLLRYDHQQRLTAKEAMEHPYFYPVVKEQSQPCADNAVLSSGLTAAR
UniProt P28300, whole entry, looked up: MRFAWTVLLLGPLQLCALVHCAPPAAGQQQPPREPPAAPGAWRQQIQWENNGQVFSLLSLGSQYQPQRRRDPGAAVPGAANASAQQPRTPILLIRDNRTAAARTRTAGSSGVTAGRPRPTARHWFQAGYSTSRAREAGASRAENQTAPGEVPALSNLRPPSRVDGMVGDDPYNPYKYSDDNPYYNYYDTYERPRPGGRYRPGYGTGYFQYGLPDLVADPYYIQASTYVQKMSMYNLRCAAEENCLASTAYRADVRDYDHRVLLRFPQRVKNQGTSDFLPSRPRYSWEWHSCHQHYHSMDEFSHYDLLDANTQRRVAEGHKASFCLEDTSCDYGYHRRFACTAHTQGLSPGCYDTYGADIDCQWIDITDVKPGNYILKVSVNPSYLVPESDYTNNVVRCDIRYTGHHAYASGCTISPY
UniProt O00311, whole entry: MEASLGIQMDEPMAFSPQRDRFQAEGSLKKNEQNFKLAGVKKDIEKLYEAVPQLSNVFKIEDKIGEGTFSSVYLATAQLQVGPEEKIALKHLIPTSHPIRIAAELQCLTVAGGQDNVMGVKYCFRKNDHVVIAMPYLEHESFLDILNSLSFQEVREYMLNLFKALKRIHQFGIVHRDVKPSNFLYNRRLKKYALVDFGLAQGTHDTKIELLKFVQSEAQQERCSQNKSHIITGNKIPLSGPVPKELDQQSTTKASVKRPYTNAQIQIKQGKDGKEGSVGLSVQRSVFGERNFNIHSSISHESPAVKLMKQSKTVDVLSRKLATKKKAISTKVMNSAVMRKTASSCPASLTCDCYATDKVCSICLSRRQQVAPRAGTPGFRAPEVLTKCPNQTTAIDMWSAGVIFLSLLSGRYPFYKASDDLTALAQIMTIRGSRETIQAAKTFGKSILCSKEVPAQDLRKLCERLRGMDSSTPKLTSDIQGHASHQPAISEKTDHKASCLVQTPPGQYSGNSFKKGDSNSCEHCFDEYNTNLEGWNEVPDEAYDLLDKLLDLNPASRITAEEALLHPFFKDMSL
UniProt Q8IXJ6, whole entry, looked up: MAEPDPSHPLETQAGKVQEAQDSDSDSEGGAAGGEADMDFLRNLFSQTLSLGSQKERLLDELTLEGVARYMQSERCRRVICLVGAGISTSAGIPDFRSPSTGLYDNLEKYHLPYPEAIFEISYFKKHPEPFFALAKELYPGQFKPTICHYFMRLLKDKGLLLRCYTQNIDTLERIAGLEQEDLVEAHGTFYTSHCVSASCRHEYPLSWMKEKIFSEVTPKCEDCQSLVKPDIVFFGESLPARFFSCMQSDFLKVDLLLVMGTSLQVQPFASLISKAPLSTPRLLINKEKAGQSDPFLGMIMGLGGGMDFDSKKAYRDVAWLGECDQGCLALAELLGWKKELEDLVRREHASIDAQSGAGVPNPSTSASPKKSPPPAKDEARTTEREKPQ
UniProt Q13304, whole entry: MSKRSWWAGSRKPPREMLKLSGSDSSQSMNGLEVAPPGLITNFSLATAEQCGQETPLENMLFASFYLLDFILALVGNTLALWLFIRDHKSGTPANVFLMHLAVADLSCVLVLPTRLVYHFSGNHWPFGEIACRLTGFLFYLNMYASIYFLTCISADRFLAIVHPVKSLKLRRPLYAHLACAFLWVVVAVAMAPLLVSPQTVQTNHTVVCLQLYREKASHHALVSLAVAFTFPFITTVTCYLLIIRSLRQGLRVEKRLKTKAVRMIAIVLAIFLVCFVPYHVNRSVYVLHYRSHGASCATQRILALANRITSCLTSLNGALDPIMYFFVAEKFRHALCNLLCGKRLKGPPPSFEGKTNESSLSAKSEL

CCOC(=O)c1c(C)oc2c1C(=O)c1nc(Oc3cccnc3)ccc1C2=O — IC50 (TDP2 (Homo sapiens, UniProt O95551); enzyme activity, inhibitor; together with: 5'-phosphotyrosyl oligonucleotide substrate): > 111 µM
CCC(=O)Nc1ccc(-c2csc(NC(=O)c3ccco3)n2)cc1 — IC50 (Scavenger receptor class B member 1 (Mus musculus, UniProt Q61009); DiI-HDL uptake, inhibitor; mouse cells; together with: DiI-HDL): 2 µM
O=C(CCl)N1CCN(c2cc(N3CCCC3)nc(N3CCCC3)n2)CC1 — IC50 (Caspase-1 (CASP1, Homo sapiens, UniProt P29466); inhibitor; 60 min preincubation): 0.424 ± 0.23 µM
CCCS(=O)(=O)N(C)C(CCC(=O)O)C(=O)O (stereo not shown) — IC50 (FOLH1 (Homo sapiens, UniProt Q04609); enzyme activity, inhibitor, HPLC; 15 min, pH 7.4, 37 °C, 1% Triton X-100, together with: 10 mM glutamate dipeptide substrate): > 100 µM
COCCCn1nc(-c2ccc(CC(=O)Nc3cc(C(C)(C)C)on3)cc2)c2c(N)ncnc21 — IC50 (RET (Homo sapiens, UniProt P07949); inhibitor): 0.00032 µM and 0.000326 µM
Cc1cc(S(=O)(=O)O)ccc1N=Nc1c(O)ccc2ccccc12 — IC50 (Bcl-2-related protein A1 (Mus musculus, UniProt Q07440, C113S/P104K); binding, fluorescence polarization; together with: FITC-Noxa peptide): 55 µM
CCN(CC)C(=O)Oc1ccccc1C=C1Cc2cc(OC)c(OC)cc2C1=O — IC50 (Cocaine esterase (CES2, Homo sapiens, UniProt O00748); inhibitor; 33 min preincubation, together with: fluorescein diacetate): 0.0032 ± 0.00038 µM
O=C(O)c1cc(C(=O)N[C@@H](Cc2ccc(O)cc2)C(=O)O)cc([C@H]2CCN[C@@H]2C(=O)O)c1 — IC50 (Glutamate receptor ionotropic, NMDA 2D, with GluN1 (Rattus norvegicus, UniProt Q62645); ion current, antagonist, two-electrode voltage clamp; Xenopus oocytes; GluN1/GluN2D, together with: glycine 100 µM and glutamate 1 µM): 25.2 ± 1.46 µM
Cc1ccccc1C(=O)Nc1ccc(-c2nc3ccccc3[nH]2)cc1 — IC50 (Moesin with CD44; MSN-CD44 interaction, inhibitor, TR-FRET; together with: CD44): > 100 µM
Cc1cnccc1-c1ccc(C2(c3ccc(Cl)cc3)CCNCC2)cc1 — IC50 (AKT1 (Homo sapiens, UniProt P31749); kinase activity, inhibitor, radiometric HotSpot; together with: ATP 10 µM): 0.118 µM
COc1ccc(N=Nc2c(S(=O)(=O)OC(C)C)cc3cc(Nc4nc(Cl)nc(Cl)n4)ccc3c2O)cc1 — IC50 (Prmt1 (Rattus norvegicus, UniProt Q63009); histone methylation; together with: histone 4): 56.7 ± 10.9 µM
CN1CCN(Cc2ccc(NC(=O)c3cncc(C#Cc4cncc5ncccc45)c3)cc2C(F)(F)F)CC1 — IC50 (Kinesin-1 heavy chain/ Tyrosine-protein kinase receptor RET (RET/KIF5B, Homo sapiens, UniProt P07949+P33176, G810D); cell viability, inhibitor, CellTiter-Glo; Ba/F3 KIF5B-RET G810D): 0.00671 ± 0.0003 µM
COC(=O)[C@@H]1C(C=Nc2cncnc2NC(C)=O)=Cc2cc3c(cc2[C@H]1c1cc(OC)c(OC)c(OC)c1)OCO3 — IC50 (Tubulin alpha/beta heterodimer; tubulin polymerization, inhibitor; 37 °C, together with: tubulin 1.2 mg/mL): 0.78 µM and 0.8 µM
CC(=O)Nc1cc(Nc2cc(NC3CC3)n3ncc(C#N)c3n2)ccc1N(C)Cc1ccccc1 — IC50 (CSNK2A2 (Homo sapiens, UniProt P19784); inhibitor): 0.094 µM
O=c1[nH]c(=O)c2cc(-c3ccccc3)sc2[nH]1 — IC50 (PTP4A3 (Homo sapiens, UniProt O75365); phosphatase activity; 30 min, pH 7.0, 25 °C, together with: DiFMUP 12 µM): > 240 µM
O=C(Nc1ccc(-c2nc3ccc(NC(=O)N4CCOCC4)cc3s2)cc1)N1CCOCC1 — IC50 (Moesin with CD44; MSN-CD44 interaction, inhibitor, TR-FRET; together with: CD44): > 100 µM
O=C(c1ccccc1)N(O)CCCP(=O)(O)O — IC50 (1-deoxy-D-xylulose 5-phosphate reductoisomerase, apicoplastic (DXR, Plasmodium falciparum, UniProt O96693)): 0.232 µM
O=C(OC(C(F)(F)F)C(F)(F)F)N1CCc2ccc(Br)cc2C1 — IC50 (ABHD6 (Homo sapiens, UniProt Q9BV23); inhibitor, fluorescence): 0.394 ± 0.0043 µM
CN1CC[C@H](c2c(O)cc(O)c3c(=O)cc(-c4ccccn4)oc23)[C@H](O)C1 — IC50 (Cyclin-dependent kinase 2, part with cyclin A (CDK2, Homo sapiens, UniProt P24941); enzyme activity, inhibitor; with cyclin A, together with: histone H1 substrate): 0.886 µM
COC(=O)/C(=C/c1c[nH]c2ccc(F)cc12)c1ccc(NS(C)(=O)=O)cc1 — IC50 (IDO1; enzyme activity, inhibitor): 7.8 µM
COC(=O)[C@@H]1C(C=Nc2ccccc2O)=Cc2cc3c(cc2[C@H]1c1cc(OC)c(OC)c(OC)c1)OCO3 — IC50 (Tubulin alpha/beta heterodimer; tubulin polymerization, inhibitor; 37 °C, together with: tubulin 1.2 mg/mL): 1.16 µM and 1.2 µM
Cc1n[nH]c(C)c1-c1ccc(C2(c3ccc(Cl)cc3)CCNCC2)cc1 — IC50 (LATS1 (Homo sapiens, UniProt O95835); kinase activity, inhibitor, radiometric HotSpot; together with: ATP 10 µM): 0.52 µM
Cc1nc(N)sc1-c1csc(Nc2cccc(O)c2)n1 — IC50 (Protein-lysine 6-oxidase (Homo sapiens, UniProt P28300); LOX activity, inhibitor; MDA-MB-231): > 10 µM
C=Cc1cccc(-c2cc(=O)c3c(O)cc(O)c([C@H]4CCN(C)C[C@H]4O)c3o2)c1 — IC50 (Cyclin-dependent kinase 9, with cyclin T1 (CDK9, Homo sapiens, UniProt P50750); inhibitor; with cyclin T1, GST-CTD substrate): 0.0099 µM
Cc1ncsc1-c1ccc(CNC(=O)[C@@H]2C[C@@H](O)CN2C(=O)c2cccc(O)c2)cc1 — IC50 (VHL with elongin B, C; binding, fluorescence polarization; 1% DMSO, together with: FAM-HIF1α peptide tracer): 3.71 ± 0.03 µM
CS(=O)(=O)Nc1ccc(/C=C/c2c[nH]c3ccc(C#N)cc23)cc1 — IC50 (APP amyloid-beta peptide; Aβ42 oligomerisation, ELISA): 17.2 µM
NC(=O)c1ccc(C(=O)NOCc2ccc(Sc3ccccc3F)c(C(F)(F)F)c2)cc1 — IC50 (SIRT6 (Homo sapiens, UniProt Q8N6T7); deacetylase activity, inhibitor, fluorogenic; together with: RHKK-ac-AMC): 1.59 ± 0.05 µM
CC(C)[C@H](N)c1nc2cc(-c3ccncn3)sc2c(=O)[nH]1 — IC50 (CDC7 (Homo sapiens, UniProt O00311); enzyme activity, inhibitor): 0.495 ± 0.0297 µM
O=C(Cn1c(-c2cscn2)nc2ccccc21)Nc1ccc(Cl)cc1 — IC50 (IMPDH2 (Homo sapiens, UniProt P12268); enzyme activity, inhibitor; lower bound): ≥ 20 µM
COc1cc([N+](=O)[O-])ccc1NC(=O)Nc1cnc(C#N)cn1 — IC50 (CHEK1 (Homo sapiens, UniProt O14757); enzyme activity, inhibitor; together with: CDC25C substrate): > 10 µM
Cc1ccc(SCC(=O)Nc2ccc3nc(SCC(=O)NC(C)C)sc3c2)cc1 — IC50 (ESR1; reporter gene, antagonist; HEC-1 transfected ERα luciferase reporter): > 50 µM
CCOc1ccc(S(=O)(=O)NC(=O)Cc2ccc(C)cc2)cc1Br — IC50 (CGAS (Homo sapiens, UniProt Q8N884); enzyme activity, inhibitor, Kinase-Glo ATP depletion; 25 °C, 100 nM enzyme): 3.42 µM
Cc1ncsc1-c1ccc(CNC(=O)[C@@H]2C[C@@H](O)CN2C(=O)c2cccc(Br)c2)cc1 — IC50 (VHL with elongin B, C; binding, fluorescence polarization; 1% DMSO, together with: FAM-HIF1α peptide tracer): 26.8 ± 1.8 µM
O=C(O)CNC(=O)c1cc(C(=O)O)cc([C@H]2CCN[C@@H]2C(=O)O)c1 — IC50 (kainate receptor (rat); binding, radioligand binding; rat cortical synaptosomes; together with: [3H]kainate): 44 µM
O=C(CCCn1c(=S)[nH]c2ccccc2c1=O)N1CCN(c2ccc(Cl)cc2)CC1 — IC50 (ESR1; reporter gene, antagonist; HEC-1 cells transfected with ERα; together with: estradiol 1 nM): 7.1 µM
NC(=O)c1cn(-c2ccc(F)cc2)c2ccc(OCc3ccncc3)cc2c1=O — IC50 (Grm2; calcium mobilization, negative allosteric modulator): 0.895 µM
COC(=O)[C@@]1(C)C=C(C(=O)Nc2cccc(C(=O)NC34CC(Nc5nccc(-c6cccnc6)n5)(C3)C4)c2)C(=O)CC1 — IC50 (MAPK8 (Homo sapiens, UniProt P45983); enzyme activity; together with: glutathione 10 mM): 0.016 ± 0.002 µM
O=C(N/N=C/c1ccc(Sc2ccccn2)s1)c1cccc(Cl)c1 — IC50 (Protein phosphatase EYA2 (Homo sapiens, UniProt O00167); tyrosine phosphatase activity, inhibitor): 0.28 µM
Fc1ccc2[nH]cc(/C=C/c3cccnc3)c2c1 — IC50 (APP amyloid-beta peptide; Aβ42 oligomerisation, ELISA): > 20 µM
COc1ccc(-c2cc(=O)c3c(OC)cc(OC)cc3o2)cc1 — IC50 (Pde5a (Mus musculus, UniProt Q8CG03); enzyme activity, inhibitor): 37.4 ± 1.15 µM
COc1ccc2[nH]cc(/C=C/c3cccc([N+](=O)[O-])c3)c2c1 — IC50 (IDO1; enzyme activity, inhibitor): > 100 µM
NC(=O)c1cn(-c2ccc(F)cc2)c2ccc(CN3CCCCCC3)cc2c1=O — IC50 (Grm2; calcium mobilization, negative allosteric modulator): 2.08 µM
CC(C)CNC(=O)CSc1nc2ccc(NC(=O)CSc3ccccc3Cl)cc2s1 — IC50 (ESR1; reporter gene, antagonist; HEC-1 transfected ERα luciferase reporter): 20 to 50 µM
CCCCCCCCCCCCNC(=S)NCCCC[C@H](NC(=O)CCCCCCCC)C(=O)N[C@H](C)C(=O)N[C@@H](CCCNC(=N)N)C(N)=O — IC50 (SIRT2 (Homo sapiens, UniProt Q8IXJ6); deacetylation, inhibitor; NAD+ 500 µM, together with: acetylated peptide 50 µM): 0.51 ± 0.03 µM
COc1cc2c(SCCCN)c3ccccc3nc2cc1Cl — IC50 (DYRK2 (Homo sapiens, UniProt Q92630); inhibitor; together with: Woodtide peptide): 9.4 µM
COc1ccc2c(c1)c(CC(=O)NCCCCNC(=O)c1ccc(C3=c4cc5c6c(c4Oc4c3cc3c7c4CCCN7CCC3)CCC[N+]=6CCC5)c(C(=O)NC3CC(C)(C)N(O)C(C)(C)C3)c1)c(C)n2C(=O)c1ccc(Cl)cc1 — IC50 (PTGS1 (Ovis aries, UniProt P05979); enzyme activity, inhibitor, TLC; together with: [14C]arachidonic acid): > 4 µM
CCCCN(CCc1ccc(Cl)c(Cl)c1)C[C@H](O)COc1ccc(NS(C)(=O)=O)cc1 — IC50 (Glutamate NMDA receptor; Grin1/Grin2b (Grin1/Grin2b, Rattus norvegicus, UniProt P35439+Q00960); whole-cell voltage clamp; HEK293 cells; pH 6.9): 0.04 µM
O=C(Nc1ccc(Cl)cc1)C(NS(=O)(=O)c1cccs1)c1ccc(-c2ccccc2)cc1 (stereo not shown) — IC50 (Uracil nucleotide/cysteinyl leukotriene receptor, long isoform (GPR17, Homo sapiens, UniProt Q13304); calcium mobilization, antagonist; 1321-N1): 3.18 ± 0.43 µM
CC(C)(C)OC(=O)N1CCN(S(=O)(=O)c2ccc3[nH]c(=O)oc3c2)CC1 — IC50 (NUDT15 (Homo sapiens, UniProt Q9NV35); enzyme activity, inhibitor, malachite green; together with: dGTP): 1.3 µM
CC(=NN=C1NC(=O)C(CC(=O)Nc2ccc(C(=O)O)cc2)S1)c1cccs1 (stereo not shown) — IC50 (PPP3CA (Homo sapiens, UniProt Q08209); phosphatase activity, inhibitor, malachite green; together with: phosphopeptide substrate at Km): 8.56 µM and 8.6 µM
CSc1cc(NC(=O)c2ccccn2)ccc1Cl — IC50 (GRM2 (Homo sapiens, UniProt Q14416); antagonist): > 30 µM
C=CC(=O)Nc1cccc(N(C(=O)OCc2ccc(F)cc2)c2ccnc(Nc3ccn(C)n3)n2)c1 — IC50 (EGFR (Homo sapiens, UniProt P00533); enzyme activity, inhibitor, Z'-LYTE; together with: ATP 100 µM): 0.0008 ± 0.0001 µM
O=C(Nc1ccccc1OS(=O)(=O)c1ccc(I)cc1)c1cnccn1 — IC50 (P2X purinoceptor 7 (P2RX7, Homo sapiens, UniProt Q99572); calcium mobilisation, antagonist; MCF7 transfected with target; together with: Bz-ATP 100 µM): 1.9 ± 0.172 µM
Nc1ccc(Cl)c2cccnc12 — IC50 (METAP1 (Homo sapiens, UniProt P53582); enzyme activity, inhibitor): > 40 µM
CCOc1cc(C(=O)N2CCC(N3CCN(C)CC3)CC2)ccc1Nc1ncc2c(n1)N(C(C)C)c1ccccc1C(=O)N2C — IC50 (LRRK2 (Homo sapiens, UniProt Q5S007); kinase activity, Adapta): 0.114 ± 0.011 µM

Excerpt of the above:
Cc1ccc(SCC(=O)Nc2ccc3nc(SCC(=O)NC(C)C)sc3c2)cc1 — IC50 (ESR1; reporter gene, antagonist; HEC-1 transfected ERα luciferase reporter): > 50 µM
CCOc1ccc(S(=O)(=O)NC(=O)Cc2ccc(C)cc2)cc1Br — IC50 (CGAS (Homo sapiens, UniProt Q8N884); enzyme activity, inhibitor, Kinase-Glo ATP depletion; 25 °C, 100 nM enzyme): 3.42 µM
Cc1ncsc1-c1ccc(CNC(=O)[C@@H]2C[C@@H](O)CN2C(=O)c2cccc(Br)c2)cc1 — IC50 (VHL with elongin B, C; binding, fluorescence polarization; 1% DMSO, together with: FAM-HIF1α peptide tracer): 26.8 ± 1.8 µM
O=C(O)CNC(=O)c1cc(C(=O)O)cc([C@H]2CCN[C@@H]2C(=O)O)c1 — IC50 (kainate receptor (rat); binding, radioligand binding; rat cortical synaptosomes; together with: [3H]kainate): 44 µM
